Assay results collected from several papers.
“And” joins repeats or separate records; there may be more than shown. Numbers after ± are the reported error. In brackets after ≈: the same amount, converted by molar mass.
CYP1A2: Cytochrome P450 1A2 (CYP1A2, Homo sapiens, UniProt P05177)

Chains of the proteins cited; added tags and fusions are not shown. Residues count along the entry.
UniProt P05177, whole entry: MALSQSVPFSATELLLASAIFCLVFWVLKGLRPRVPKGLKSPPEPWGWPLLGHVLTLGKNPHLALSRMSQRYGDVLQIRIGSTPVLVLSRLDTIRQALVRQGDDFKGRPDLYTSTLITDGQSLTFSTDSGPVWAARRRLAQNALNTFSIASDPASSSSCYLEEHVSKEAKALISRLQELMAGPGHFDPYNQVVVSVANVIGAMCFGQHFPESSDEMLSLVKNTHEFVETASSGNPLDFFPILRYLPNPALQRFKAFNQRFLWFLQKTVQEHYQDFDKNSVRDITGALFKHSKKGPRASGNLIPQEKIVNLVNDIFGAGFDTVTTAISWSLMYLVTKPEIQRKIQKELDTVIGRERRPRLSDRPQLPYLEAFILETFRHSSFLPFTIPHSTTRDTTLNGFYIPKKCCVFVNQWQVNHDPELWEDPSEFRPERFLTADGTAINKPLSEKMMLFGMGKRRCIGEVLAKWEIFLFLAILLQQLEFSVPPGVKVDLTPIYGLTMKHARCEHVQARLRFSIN
UniProt P35353, 24-415 limits assumed: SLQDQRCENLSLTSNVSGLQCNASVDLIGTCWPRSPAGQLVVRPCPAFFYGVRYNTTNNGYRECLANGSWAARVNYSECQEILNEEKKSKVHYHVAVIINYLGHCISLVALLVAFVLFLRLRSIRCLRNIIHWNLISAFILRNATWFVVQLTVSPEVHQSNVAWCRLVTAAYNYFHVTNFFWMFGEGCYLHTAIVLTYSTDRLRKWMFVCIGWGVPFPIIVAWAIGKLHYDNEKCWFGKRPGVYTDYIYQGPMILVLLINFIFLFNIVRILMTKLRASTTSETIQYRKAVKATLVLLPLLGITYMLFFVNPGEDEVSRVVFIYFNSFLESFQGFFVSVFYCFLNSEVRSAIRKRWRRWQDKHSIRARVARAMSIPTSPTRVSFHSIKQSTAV
UniProt P41738, 10-853 limits assumed: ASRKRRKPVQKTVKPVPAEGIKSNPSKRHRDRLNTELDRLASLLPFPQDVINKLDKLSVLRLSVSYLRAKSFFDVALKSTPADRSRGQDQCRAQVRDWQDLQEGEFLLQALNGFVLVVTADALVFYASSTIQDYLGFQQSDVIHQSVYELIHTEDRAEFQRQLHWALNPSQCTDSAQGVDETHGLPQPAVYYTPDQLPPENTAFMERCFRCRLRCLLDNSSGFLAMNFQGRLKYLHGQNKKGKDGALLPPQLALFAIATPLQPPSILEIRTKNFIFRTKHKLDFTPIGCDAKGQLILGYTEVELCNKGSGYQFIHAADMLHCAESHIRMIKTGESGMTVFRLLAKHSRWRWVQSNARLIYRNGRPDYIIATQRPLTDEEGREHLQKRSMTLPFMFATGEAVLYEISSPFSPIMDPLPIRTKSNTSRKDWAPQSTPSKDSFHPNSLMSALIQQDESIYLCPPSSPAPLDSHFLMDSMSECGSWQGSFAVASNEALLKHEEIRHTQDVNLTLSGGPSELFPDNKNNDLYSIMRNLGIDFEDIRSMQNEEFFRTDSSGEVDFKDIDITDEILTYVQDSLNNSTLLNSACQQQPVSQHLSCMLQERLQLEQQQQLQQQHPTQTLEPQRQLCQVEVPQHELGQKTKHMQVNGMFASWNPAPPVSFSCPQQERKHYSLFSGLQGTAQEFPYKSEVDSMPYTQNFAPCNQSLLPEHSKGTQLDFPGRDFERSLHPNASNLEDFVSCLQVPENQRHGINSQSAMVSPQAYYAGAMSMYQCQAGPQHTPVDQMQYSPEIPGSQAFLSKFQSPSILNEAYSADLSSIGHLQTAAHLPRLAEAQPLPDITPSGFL
UniProt P06873, 106-384 limits assumed: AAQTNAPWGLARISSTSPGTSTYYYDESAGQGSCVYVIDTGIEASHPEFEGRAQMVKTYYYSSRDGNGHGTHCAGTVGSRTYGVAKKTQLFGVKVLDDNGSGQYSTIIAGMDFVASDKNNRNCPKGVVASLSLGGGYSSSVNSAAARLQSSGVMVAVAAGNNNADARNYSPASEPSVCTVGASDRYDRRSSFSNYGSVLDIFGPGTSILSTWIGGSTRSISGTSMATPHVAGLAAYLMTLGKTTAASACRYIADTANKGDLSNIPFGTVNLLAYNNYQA

COc1ccc(S(=O)(=O)Nc2cccc(C(=O)NC3CCN(c4ncnc5[nH]cnc45)CC3)c2)cc1 has a viability of 102% (A549-ACE2; 7.407 µM).
Cc1ccc2nc(-c3ccc4nc(-c5ccc(NC(=O)c6cccc(Cl)c6)cc5)sc4c3)sc2c1S(=O)(=O)O gave a solubility of 36.7 µg/mL (aqueous buffer; pH 5.0).
The parent fraction of COCCN(CCOC)c1nc(C)nc2c(-c3c(OC)cc([76Br])cc3OC)c(C)nn12 is reported as over 70% (Corticotropin-releasing factor receptor 1 (Rattus norvegicus, UniProt P35353); TLC; rat, brain homogenate; intravenous, 1 h; baseline: total radioactivity).
With Cc1ccc(NC(=O)C2CC3CCC2C3)cc1 (stereo not drawn) the IC50 was 10.4 µM (CYP1A2; enzyme activity, inhibitor).
For NCCNC(=O)c1cc2c([nH]c3ccccc32)c(-c2ccc(C(F)(F)F)cc2)n1, the kinetic solubility was 41.6 µM (≈ 16.6 µg/mL) (pH 7.4).
The half-life of [2H]c1c([2H])c(S(=O)(=O)N2CCC([2H])(C(=O)Nc3ccc4cc(C(=O)O)ccc4c3)CC2)c(C([2H])([2H])[2H])c([2H])c1C([2H])([2H])[2H] is reported as over 60 min (rat liver microsomes; 60 min, 37 °C).
Cc1ccc(S(=O)(=O)Nc2cccc(C(=O)NC3CCN(c4ncnc5[nH]cnc45)CC3)c2)cc1Cl gave a viability of 101% (A549-ACE2; 0.823 µM).
The remaining compound of O=C(NC1CCCCC1)Oc1ccc(O)c(-c2ccccc2)c1 is reported as 78 ± 2.5% (PBS; 1 µM, 24 h, pH 7.4, 37 °C).
Under cytotoxicity, CC[C@H](C)[C@@H]1NC(=O)[C@H](Cc2c[nH]cn2)NC(=O)[C@H](Cc2ccc(O)cc2)NC(=O)[C@H](Cc2ccc(O)cc2)NC(=O)[C@H](C(C)C)NC(=O)[C@H](Cc2c[nH]cn2)NC(=O)[C@H](CCCCN)NC(=O)[C@H]([C@@H](C)O)NC(=O)[C@H](Cc2ccc(O)cc2)NC(=O)CSC[C@@H](C(N)=O)NC(=O)[C@H](Cc2ccc(O)cc2)NC(=O)[C@H](C(C)C)NC(=O)[C@H](CC(C)C)NC(=O)[C@H](Cc2ccc(O)cc2)NC(=O)[C@H]([C@@H](C)CC)NC(=O)[C@H]([C@@H](C)O)NC1=O is recorded as “not toxic” (HEK293-ACE2-TMPRSS2; up to 50 µM).
NCCNCCSc1ccccc1 — result for “apparent volume of distribution (Vz/F)”: 214 L/kg (Swiss Albino mouse, female; oral, 400 mg/kg, single dose, non-compartmental).
The radioactivity uptake of [11CH3]Nc1ccc(C(=O)C2CCN(C3Cc4ccccc4CC3O)CC2)cc1 (single isomer, unassigned) is reported as 1.77 %ID/g (Sprague-Dawley rat, lung; intravenous, dose not given, 5 min).
CN(C(=O)Cc1c(Cl)cccc1Cl)[C@@H]1CCCC[C@H]1N1CCCC1 has an intrinsic clearance of 3.7 mL/min/g (human liver microsomes; 0.5 µM, added: NADPH).
CC(C)C[C@@H](NC(=O)[C@H](NC(=O)[C@H]1CCCN1)[C@H](C)O)C(=O)N[C@H](Cc1c[nH]cn1)C(=O)N[C@@H](C(=O)N[C@H](Cc1c[nH]cn1)C(=O)N[C@H](CC(N)=O)C(=O)N[C@H](CCCNC(=N)N)C(=O)N[C@H](CCCNC(=N)N)C(=O)N[C@H](CCCNC(=N)N)C(=O)N[C@H](CCCNC(=N)N)C(=O)N[C@H](CCCNC(=N)N)C(N)=O)[C@H](C)O has an accumulation ratio of 3.4 (healthy human, plasma; 2 320 mg daily; baseline: AUC(0-inf) day 28 over AUC(0-24h)).
C[C@@H](O)[C@@H]1NC(=O)[C@@H]2CSCSC[C@@H](C(=O)N[C@H](CC(=O)N[C@@H](CCCNC(=N)N)C(=O)O)Cc3ccc(O)cc3)NC(=O)[C@H](CCC(N)=O)NC(=O)[C@H](Cc3ccc(O)c(I)c3)NC(=O)[C@H](CCCNC(=N)N)NC(=O)[C@H](CSSC[C@H](NC(=O)CN)C(=O)N2)NC(=O)[C@H](CCCNC(=N)N)NC(=O)[C@@H]2CCCN2C(=O)[C@H](CC(=O)O)NC1=O — result for inhibition: “no inhibition” (cytochrome P450 isoforms; enzyme activity, inhibitor; 10 µM).
COCn1cc(-c2cc([C@@H](C)NC(=O)c3cc(OCCN(C)C)ccc3C)c3ccccc3n2)cn1 gave a viability of 101% and 105% (Vero E6 cells; 15.62 µM).
CC1(C)CC[C@]2(C(=O)O)CC[C@]3(C)C(=CC[C@@H]4[C@@]5(C)CC[C@H](OC(=O)NCc6ccccc6)C(C)(C)[C@@H]5CC[C@]43C)[C@@H]2C1 gave a Cmax of 16.6 µM (C57BL/6 mice, plasma; intraperitoneal, 85 µmol/kg).
O=C(NC1CCN(c2ncnc3[nH]cnc23)CC1)c1cccc(S(=O)(=O)Nc2ccc(Cl)cc2)c1 has a viability of 103% (A549-ACE2; 2.469 µM).
With O=c1c(-c2c[nH]c3ccccc23)nccc2c1[nH]c1ccccc12 the EC50 was 0.0045 µM (Ahr (Rattus norvegicus, UniProt P41738); reporter gene, activator; rat H4L7.5c2; 6 h).
The intrinsic clearance of CN(C(=O)Cc1ccc(Cl)c(Cl)c1)[C@@H]1CCCC[C@H]1N1CCCCC1 is reported as 11 mL/min/g (human liver microsomes; 0.5 µM, added: NADPH).
The viability of O=C(NC1CCN(c2ncnc3[nH]cnc23)CC1)c1cccc(NS(=O)(=O)c2ccc(Cl)cc2)c1 is reported as 95.6% (A549-ACE2; 2.469 µM).
For CNCCNC(=O)c1cc2c([nH]c3ccccc32)c(-c2cc(Cl)c(Cl)c(Cl)c2)n1, the kinetic solubility was 3.5 µM (≈ 1.57 µg/mL) (pH 7.4).
CC(C)[C@H](N)C(=O)N[C@@H](Cc1ccc(O)cc1)C(=O)N[C@@H](Cc1ccc(O)cc1)C(=O)N[C@@H](CCCNC(=N)N)C(=O)O has a solubility of at least 1000 µM (Actrapid formulation; pH 7).
CC[C@H](C)[C@H](NC(=O)[C@H](CO)NC(=O)[C@H](CC(=O)O)NC(=O)[C@H](CC(C)C)NC(=O)[C@@H](NC(=O)[C@H](CCCCN)NC(=O)[C@H](CC(N)=O)NC(=O)[C@H](CO)NC(=O)[C@H](CCCNC(=N)N)NC(=O)[C@H](CCCNC(=N)N)NC(=O)[C@@H](NC(=O)[C@H](Cc1c[nH]c2ccccc12)NC(=O)[C@H](CCC(=O)O)NC(=O)[C@H](CCCCN)NC(=O)[C@H](CO)NC(=O)[C@H](CCC(=O)O)NC(=O)[C@H](CCC(=O)O)NC(=O)[C@H](CC(C)C)NC(=O)[C@H](CC(=O)O)NC(=O)[C@H](CO)NC(=O)[C@H](CCCCN)NC(=O)[C@@H](NC(=O)[C@H](CCCCN)NC(=O)[C@H](CC(N)=O)NC(=O)[C@H](CC(C)C)NC(=O)[C@@H](NC(=O)[C@@H](NC(=O)[C@H](CO)NC(=O)[C@@H](NC(=O)[C@H](CC(=O)O)NC(=O)[C@@H](NC(=O)[C@@H]1CCCN1C(=O)[C@H](CC(=O)O)NC(=O)[C@H](CC(C)C)NC(=O)[C@H](C)NC(=O)[C@@H](NC(C)=O)C(C)C)[C@@H](C)CC)[C@@H](C)CC)[C@@H](C)CC)C(C)C)[C@@H](C)CC)[C@@H](C)CC)[C@@H](C)CC)C(=O)NCC(=O)N[C@@H](CO)C(=O)NCC(=O)N[C@@H](CO)C(=O)NCC(=O)NCCOCCOCCOCCOCCC(=O)N[C@@H](CSCC(=O)Oc1c(C)c(C)c2c(c1C)CC[C@@](C)(CCC[C@H](C)CCC[C@H](C)CCCC(C)C)O2)C(N)=O gave a half-life of 13 min (Proteinase K (PROK, Engyodontium album, UniProt P06873); proteolytic degradation, substrate; 30 µM, pH 7.5, 37 °C, added: 10 µg/mL proteinase K).
O=C(NC1CCN(c2ncnc3[nH]cnc23)CC1)c1cccc(NS(=O)(=O)c2ccc([N+](=O)[O-])cc2)c1 gave a viability of 103% (A549-ACE2; 2.469 µM).
COc1ccc(S(=O)(=O)N2CCCN(CC(=O)Nc3ccc(OC)cc3OC)CC2)cc1 gave an IC50 of over 30 µM (CYP1A2; enzyme inhibition, inhibitor).
With Cc1ccccc1S(=O)(=O)Nc1cccc(C(=O)NC2CCN(c3ncnc4[nH]cnc34)CC2)c1 the viability was 105% (A549-ACE2; 0.823 µM).
With O=C(Nc1ccccc1OS(=O)(=O)c1ccc(OC(F)(F)F)cc1)c1cnccn1 the viability was 64.2 ± 0.75% (1321-N1 astrocytoma; MTT; 100 µM, 24 h; baseline: untreated).
